Measured values collected from several papers.
Each line is one published result; not all experiments were run side by side. “And” joins repeats or separate records; there may be more than shown. ± marks the error that the study gave.
ache: Acetylcholinesterase (ache, Electrophorus electricus, UniProt O42275)
Sequence of UniProt O42275 (whole entry, looked up): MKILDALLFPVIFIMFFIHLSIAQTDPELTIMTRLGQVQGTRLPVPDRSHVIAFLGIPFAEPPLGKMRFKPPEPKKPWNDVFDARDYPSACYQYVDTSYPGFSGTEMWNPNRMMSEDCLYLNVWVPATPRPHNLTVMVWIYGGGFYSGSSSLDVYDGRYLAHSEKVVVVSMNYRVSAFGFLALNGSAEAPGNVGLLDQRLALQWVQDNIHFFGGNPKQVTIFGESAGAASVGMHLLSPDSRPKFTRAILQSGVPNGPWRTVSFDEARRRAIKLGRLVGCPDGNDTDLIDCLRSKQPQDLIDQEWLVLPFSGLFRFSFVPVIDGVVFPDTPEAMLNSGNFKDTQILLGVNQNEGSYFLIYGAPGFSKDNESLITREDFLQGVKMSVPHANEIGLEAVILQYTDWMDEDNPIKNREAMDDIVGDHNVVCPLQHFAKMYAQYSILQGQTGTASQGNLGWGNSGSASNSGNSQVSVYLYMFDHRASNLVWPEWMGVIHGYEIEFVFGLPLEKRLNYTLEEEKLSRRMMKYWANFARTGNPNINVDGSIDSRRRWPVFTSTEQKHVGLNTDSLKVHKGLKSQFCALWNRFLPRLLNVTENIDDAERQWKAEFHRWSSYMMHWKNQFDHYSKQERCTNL
dcp2 with Dcp1: mRNA decapping complex subunit 2, with Dcp1 (dcp2, Schizosaccharomyces pombe, UniProt O13828)
Sequence of UniProt O13828 (whole entry, looked up): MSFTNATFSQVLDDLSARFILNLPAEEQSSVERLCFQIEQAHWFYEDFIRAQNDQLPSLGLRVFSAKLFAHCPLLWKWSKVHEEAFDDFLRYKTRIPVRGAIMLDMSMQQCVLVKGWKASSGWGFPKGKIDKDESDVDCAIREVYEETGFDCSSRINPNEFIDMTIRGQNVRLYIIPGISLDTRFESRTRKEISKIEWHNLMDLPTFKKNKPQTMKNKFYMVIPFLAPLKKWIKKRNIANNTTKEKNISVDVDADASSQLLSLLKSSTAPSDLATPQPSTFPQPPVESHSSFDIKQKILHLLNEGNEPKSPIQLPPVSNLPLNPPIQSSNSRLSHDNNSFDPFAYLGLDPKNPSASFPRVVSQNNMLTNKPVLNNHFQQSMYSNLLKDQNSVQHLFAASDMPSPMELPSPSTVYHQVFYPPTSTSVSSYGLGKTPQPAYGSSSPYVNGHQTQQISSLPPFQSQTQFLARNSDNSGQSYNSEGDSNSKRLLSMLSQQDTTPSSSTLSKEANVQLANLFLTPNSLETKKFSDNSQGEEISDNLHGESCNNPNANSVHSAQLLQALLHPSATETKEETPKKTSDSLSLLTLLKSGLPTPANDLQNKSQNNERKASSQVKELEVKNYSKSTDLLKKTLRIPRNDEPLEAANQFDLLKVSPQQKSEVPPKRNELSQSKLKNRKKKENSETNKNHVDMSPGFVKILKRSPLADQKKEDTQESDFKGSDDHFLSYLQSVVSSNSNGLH
Sequence of UniProt P49137 (whole entry, looked up): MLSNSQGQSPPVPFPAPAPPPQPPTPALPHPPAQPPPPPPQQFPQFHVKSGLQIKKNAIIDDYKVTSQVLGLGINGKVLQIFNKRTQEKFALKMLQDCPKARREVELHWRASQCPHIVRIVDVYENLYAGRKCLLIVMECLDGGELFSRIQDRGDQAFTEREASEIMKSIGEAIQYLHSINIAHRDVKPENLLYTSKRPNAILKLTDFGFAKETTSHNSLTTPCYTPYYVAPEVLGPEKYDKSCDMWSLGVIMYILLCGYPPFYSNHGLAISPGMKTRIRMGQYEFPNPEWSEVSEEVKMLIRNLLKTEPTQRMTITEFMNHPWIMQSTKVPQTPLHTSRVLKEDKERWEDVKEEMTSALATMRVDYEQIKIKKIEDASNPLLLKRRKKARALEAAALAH
Sequence of UniProt P62575 (whole entry, looked up): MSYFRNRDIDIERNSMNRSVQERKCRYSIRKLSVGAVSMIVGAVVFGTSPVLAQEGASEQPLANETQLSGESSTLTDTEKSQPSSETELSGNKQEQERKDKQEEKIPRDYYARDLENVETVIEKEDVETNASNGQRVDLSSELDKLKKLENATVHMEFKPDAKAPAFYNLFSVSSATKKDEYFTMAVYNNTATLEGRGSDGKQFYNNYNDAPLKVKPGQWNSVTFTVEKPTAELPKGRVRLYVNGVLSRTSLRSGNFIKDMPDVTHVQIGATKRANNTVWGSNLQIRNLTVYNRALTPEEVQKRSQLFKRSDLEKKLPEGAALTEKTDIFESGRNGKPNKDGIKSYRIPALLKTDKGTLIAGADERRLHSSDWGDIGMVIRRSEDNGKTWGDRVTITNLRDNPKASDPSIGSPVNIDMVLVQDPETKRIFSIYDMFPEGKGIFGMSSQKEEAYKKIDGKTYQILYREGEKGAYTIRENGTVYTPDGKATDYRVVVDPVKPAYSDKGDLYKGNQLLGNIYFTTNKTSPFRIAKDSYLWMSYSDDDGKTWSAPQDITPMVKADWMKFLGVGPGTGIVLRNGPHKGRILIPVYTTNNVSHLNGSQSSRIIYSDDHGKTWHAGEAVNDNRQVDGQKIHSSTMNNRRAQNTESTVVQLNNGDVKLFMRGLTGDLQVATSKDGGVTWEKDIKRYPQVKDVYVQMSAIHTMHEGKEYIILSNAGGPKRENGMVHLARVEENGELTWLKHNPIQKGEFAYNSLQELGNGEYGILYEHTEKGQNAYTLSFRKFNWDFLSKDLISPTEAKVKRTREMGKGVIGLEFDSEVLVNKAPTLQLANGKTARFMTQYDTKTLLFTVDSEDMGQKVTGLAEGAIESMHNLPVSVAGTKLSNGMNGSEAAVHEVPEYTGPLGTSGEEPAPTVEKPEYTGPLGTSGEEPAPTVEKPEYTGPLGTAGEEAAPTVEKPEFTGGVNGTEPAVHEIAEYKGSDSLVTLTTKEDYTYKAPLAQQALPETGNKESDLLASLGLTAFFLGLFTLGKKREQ
Sequence of UniProt O14757 (whole entry, looked up): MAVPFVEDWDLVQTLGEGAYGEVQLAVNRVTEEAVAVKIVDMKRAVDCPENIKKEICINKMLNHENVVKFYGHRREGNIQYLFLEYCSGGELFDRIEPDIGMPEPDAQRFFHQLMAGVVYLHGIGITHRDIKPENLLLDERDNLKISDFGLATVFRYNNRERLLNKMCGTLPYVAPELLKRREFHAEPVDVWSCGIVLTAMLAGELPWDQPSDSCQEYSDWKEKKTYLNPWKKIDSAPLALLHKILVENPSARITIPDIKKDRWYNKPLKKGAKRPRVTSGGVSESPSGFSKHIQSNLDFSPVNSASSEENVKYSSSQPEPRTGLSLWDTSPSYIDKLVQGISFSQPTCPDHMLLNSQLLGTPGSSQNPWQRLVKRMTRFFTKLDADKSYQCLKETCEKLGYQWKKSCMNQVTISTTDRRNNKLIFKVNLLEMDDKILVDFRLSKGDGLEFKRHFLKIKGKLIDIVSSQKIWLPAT
Sequence of UniProt P24530 (whole entry, looked up): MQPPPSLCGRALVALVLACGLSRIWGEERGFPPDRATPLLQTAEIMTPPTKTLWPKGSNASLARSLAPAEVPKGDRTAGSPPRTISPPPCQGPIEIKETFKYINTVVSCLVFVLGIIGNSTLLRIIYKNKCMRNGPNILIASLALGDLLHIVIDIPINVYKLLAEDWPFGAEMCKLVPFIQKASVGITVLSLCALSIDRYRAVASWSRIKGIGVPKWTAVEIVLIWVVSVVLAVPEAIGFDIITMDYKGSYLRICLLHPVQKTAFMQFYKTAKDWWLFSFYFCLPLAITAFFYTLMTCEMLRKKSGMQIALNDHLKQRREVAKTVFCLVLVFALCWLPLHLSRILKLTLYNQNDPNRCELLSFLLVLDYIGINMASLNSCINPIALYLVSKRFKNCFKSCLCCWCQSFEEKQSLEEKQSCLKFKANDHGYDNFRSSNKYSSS
Sequence of UniProt P23458 (whole entry, looked up): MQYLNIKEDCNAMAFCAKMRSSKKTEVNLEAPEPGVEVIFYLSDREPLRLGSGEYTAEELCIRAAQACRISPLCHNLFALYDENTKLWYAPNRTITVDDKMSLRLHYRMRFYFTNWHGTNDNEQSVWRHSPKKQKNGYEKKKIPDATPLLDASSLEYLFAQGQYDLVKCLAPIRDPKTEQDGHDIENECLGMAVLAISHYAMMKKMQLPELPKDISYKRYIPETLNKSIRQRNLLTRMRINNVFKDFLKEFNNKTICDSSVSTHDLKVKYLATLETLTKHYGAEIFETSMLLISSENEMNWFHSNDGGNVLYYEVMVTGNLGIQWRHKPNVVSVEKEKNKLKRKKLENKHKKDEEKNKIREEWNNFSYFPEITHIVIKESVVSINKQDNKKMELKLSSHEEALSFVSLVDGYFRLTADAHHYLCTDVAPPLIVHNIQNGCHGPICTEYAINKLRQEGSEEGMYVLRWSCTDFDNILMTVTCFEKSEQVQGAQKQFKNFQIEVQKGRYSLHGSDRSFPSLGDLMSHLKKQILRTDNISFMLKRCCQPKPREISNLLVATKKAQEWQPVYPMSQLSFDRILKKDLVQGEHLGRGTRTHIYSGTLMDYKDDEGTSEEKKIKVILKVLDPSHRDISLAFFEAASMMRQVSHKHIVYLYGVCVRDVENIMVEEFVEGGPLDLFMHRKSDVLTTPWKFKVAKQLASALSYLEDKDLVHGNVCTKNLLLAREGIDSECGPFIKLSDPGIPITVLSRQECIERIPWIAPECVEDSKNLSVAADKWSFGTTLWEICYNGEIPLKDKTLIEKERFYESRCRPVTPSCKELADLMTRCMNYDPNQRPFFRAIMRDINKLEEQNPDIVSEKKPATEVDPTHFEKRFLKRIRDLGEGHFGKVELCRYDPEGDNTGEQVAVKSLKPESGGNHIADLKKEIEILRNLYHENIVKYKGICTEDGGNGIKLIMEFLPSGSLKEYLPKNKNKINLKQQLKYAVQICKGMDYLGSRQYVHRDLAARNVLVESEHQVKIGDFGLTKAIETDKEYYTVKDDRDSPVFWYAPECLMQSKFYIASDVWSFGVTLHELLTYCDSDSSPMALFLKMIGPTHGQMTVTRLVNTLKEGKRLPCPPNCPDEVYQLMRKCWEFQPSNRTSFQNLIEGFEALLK

Cc1sc2c(c1C)C(c1ccc(Cl)cc1)=NC(CC(=O)OC(C)(C)C)c1nnc(C)n1-2 (stereo not shown)
remaining binding (ADORA3 (Homo sapiens, UniProt P0DMS8); ligand displacement, radioligand; 1 µM): 39.3%

C1COCCN1
inhibition (ache; enzyme activity, inhibitor, Ellman; 20 µM): 41.1%

COc1ccccc1-c1n[nH]c2nc(N[C@H]3CC[C@H](NS(=O)(=O)CC(C)C)CC3)ncc12
relative abundance (bead binding, competition bead pull-down, refers to: LMJF.27.2400; Leishmania donovani extract; 10 µM; reference: vehicle): 1.99

CN(C)[C@H]1C[C@@]23CC[C@@]4(O2)C(=CC[C@]2(C)[C@@H](c5ccc6ccncc6c5)CC[C@H]24)C=C3[C@@H](O)[C@@H]1O
inhibition (PI4K2A (Homo sapiens, UniProt Q9BTU6); ATP probe labelling, inhibitor, KiNativ profiling; 0.1 µM): 0.1%

CCc1nnc(-c2c(OC)cc(-c3cnc4cc(-c5cnn(C)c5)ccn34)cc2OC)o1
inhibition (SLC6A2 (Homo sapiens, UniProt P23975); antagonist radioligand, radioligand binding; 10 µM, SafetyScreen44 norepinephrine transporter): -7%

CS(C)(=O)=Nc1ccc(-c2ccc(-c3nc4cc(O[C@@H]5CO[C@H]6[C@@H]5OC[C@H]6O)[nH]c4cc3F)cc2)cc1
inhibition (FGR (Homo sapiens, UniProt P09769); enzyme activity, inhibitor; 10 µM): 8%

Fc1cccc(CN2CCNCC2)c1
inhibition (ache; enzyme activity, inhibitor, Ellman; 20 µM): 24.5%

CC(=O)NC[C@@H]1[C@@H](O)C[C@H]2[C@H](O)C[C@@H](CO)N12
inhibition (human placental β-N-acetylglucosaminidase; 0.0107 µM, run 2, together with: p-nitrophenyl GlcNAc): 14.6%

Cc1ccc2c(n1)c(-c1cccc(S(C)(=O)=O)c1)c(C)n2C/C(F)=C/CN
inhibition (CCR1 (Homo sapiens, UniProt P32246); ligand displacement, radioligand; 10 µM): -2%

NC1CC1
inhibition (ache; enzyme activity, inhibitor, Ellman; 20 µM): 34.4%

O=C1NC(=O)c2c1c1cc(F)c[n+]3c1c1c2c2cc(O)ccc2[n]1[Ru-4]312([N]=C=S)[S+]3CC[S+]1CC[S+]2CC3 (stereo not shown)
remaining activity (PAK5 (Homo sapiens, UniProt Q9P286); enzyme activity; 100 nM, human enzyme, together with: 10 µM ATP; reference: untreated): 31%

Cc1cc(C(=O)Nc2nc3cccc(C)c3n2[C@H]2CCCCN(C(=O)/C=C/CN(C)C)C2)ccn1
cells in G1 phase (Trypanosoma brucei; propidium iodide flow cytometry; bloodstream form; concentration not given, 6 h): 35.3%

CC(C)[C@H]1NC(=O)C[C@H]2/C=C/CCSSC[C@@H](NC1=O)C(=O)N[C@H](Cc1cccc3ccccc13)C(=O)NCC(=O)O2
inhibition (JAK1 (Homo sapiens, UniProt P23458); enzyme activity, inhibitor; 10 µM): 2.6%

O=C(CN1CN(c2ccccc2)C2(CCN(C(=O)c3cnc4[nH]ncc4c3)CC2)C1=O)NCC(F)(F)F
inhibition (EPHA5 (Homo sapiens, UniProt P54756); inhibitor; concentration not given): < 50%

CN(/N=C/c1ccccc1C(=O)O)c1nc(-c2ccccc2Cl)cs1
inhibition (LYNb; enzyme activity; 1 µM): 0.7%

Cc1ccc(OCCN(C)C)cc1C(=O)N[C@H](C)c1cc(-c2ccc(CNC3CCCC3)s2)nc2ccccc12
viability (Vero E6; 3.906 µM): 102% and 103%

COc1ccccc1-c1n[nH]c2nc(NC3CCN(C(=O)Cc4ccc(F)cc4F)CC3)ncc12
relative abundance (bead binding, competition bead pull-down, refers to: LMJF.03.0190; Leishmania donovani axenic amastigote extract; 10 µM; reference: vehicle): 0.74

C=CC(=O)Nc1cc(-c2nn(C3CCC(N4CCN(C(C)=O)CC4)CC3)c3ncnc(N)c23)ccc1Oc1ccccc1 (stereo not shown)
inhibition (NUAK1 (Homo sapiens, UniProt O60285); inhibitor, KiNativ profiling; biochemical; 2 µM): 2.7%

O=C(CCc1ccc(Br)cc1)N[C@H]1CCOC1=O
inhibition (lasR (Pseudomonas aeruginosa, UniProt P25084); reporter gene, antagonist; Escherichia coli JLD271; 10 µM, pSC11 and pJN105L plasmids, together with: OdDHL 2 nM): 4%

O=C1N=CN(c2ccccc2)C12CCN(Cc1ccccc1)CC2
inhibition (PDE6D (Homo sapiens, UniProt O43924); enzyme activity, inhibitor; 5 µM): 34.2%

OB(O)c1cnn(-c2cccc(Cl)c2)c1
inhibition (Beta-lactamase (ampC, Escherichia coli K-12, UniProt P00811); enzyme activity; 5 x IC50, no preincubation): ~80%

CC(=O)N[C@H]1[C@H]([C@H](O)[C@H](O)CO)O[C@@](O[C@H]2[C@@H](O)[C@@H](CO)O[C@@H](Oc3ccc([N+](=O)[O-])cc3)[C@@H]2O)(C(=O)O)C[C@@H]1N=[N+]=[N-]
inhibition (Sialidase A (nanA, Streptococcus pneumoniae, UniProt P62575); 8 µM, pH 6): 0.6 ± 2.7%

O=C(NC1CCN(c2ncnc3[nH]cnc23)CC1)c1cccc(NS(=O)(=O)c2ccc(C(F)(F)F)cc2)c1
inhibition (Genome polyprotein, NS5 methyltransferase domain (Zika virus, UniProt Q32ZE1); NS5 enzyme activity, inhibitor; 100 µM): -2.45%

CCOC(=O)[C@](CC)(CCCSCCOCCOCCNC(=O)c1ccc(-c2c3ccc(=N)c(S(=O)(=O)O)c-3oc3c(S(=O)(=O)O)c(N)ccc23)c(C(=O)O)c1)NC(=O)c1ccc(C2CC2)c(Cc2ccc(F)cc2)n1
inhibition (MMP9 (Homo sapiens, UniProt P14780); enzyme activity, inhibitor; 10 µM): 21%

N[C@H](C(=O)N1CCCC1)C1CCN(c2nccc3c(-c4ncc(Cl)cc4Cl)cccc23)CC1
inhibition (MAPKAPK2 (Homo sapiens, UniProt P49137); kinase activity, inhibitor; 10 µM, together with: ATP 1 mM): 8.3%

CN[C@@H]1[C@H](O)[C@H](NC)[C@H]2O[C@]3(O)[C@H](O[C@@H]2[C@H]1O)O[C@H](C)C[C@H]3NC(=O)Cc1cc(Cl)ccn1
inhibition (Estrogen receptor (ESR1, Homo sapiens, UniProt P03372); ligand displacement, radioligand; 10 µM): 4%

CN1CCN(c2ccc(Nc3cc4[nH]c(-c5cccc(F)c5)cc4cn3)cc2)CC1
inhibition (ache; enzyme activity, inhibitor, Ellman; 5 µM): 62.3%

O=C1NC2(CC2)COc2ncc(F)cc2[C@H]2COCCN2c2ccn3ncc1c3n2
pancreatic amylase activity (Sprague-Dawley rat, male, serum; oral, 10 mg/kg/day, 4 weeks daily, end of treatment): 1870 ± 499 U/L

Nc1ccc(/C=C/C(=O)N2CCc3c(oc4c(-c5ccc(F)cc5)cc(-c5ccc(C(=O)N6CCC(F)(F)CC6)cn5)cc34)C2)cn1
remaining binding (BRAF (Homo sapiens, UniProt P15056); binding, competition with immobilised ligand; 1 µM): 100%

C[n+]1cn([C@@H]2O[C@H](COP(=O)([S-])OP(=O)(O)CP(=O)(O)O)[C@@H](O)[C@H]2O)c2nc(N)nc(O)c21 (stereo partly shown)
inhibition (dcp2 with Dcp1; 200 µM, 0.5 h): 29.2%

COc1ccc(F)cc1S(=O)(=O)Nc1cnc2c(c1)C(=O)NCCO2
inhibition (GABA transporter; radioligand binding; 10 µM): -1%

C[C@H](NCc1ccc(-c2ccc(C(F)(F)F)cc2)cc1)C(N)=O
inhibition (CHEK1 (Homo sapiens, UniProt O14757); cell-free assay, competition with immobilised ligand; 1 µM): 0%

O=C(O)c1ccccc1/C=N/Nc1nc(-c2ccccc2Cl)cs1
inhibition (DDR2 (Homo sapiens, UniProt Q16832); enzyme activity, inhibitor; 1 µM): -11.6%

CCCCCCCCCCCCCCCCCC(=O)NC[C@H]1CC[C@H](C(=O)N[C@@H](CCC(=O)NCCCOCCOCCOCCCNC(=O)COCC(=O)N[C@@H](Cc2ccc(O)cc2)C(=O)NC(C)(Cc2ccccc2)C(=O)N[C@@H](CC(C)C)C(=O)N[C@@H](CCCC)C(=O)N[C@@H](CCCNC(=N)N)C(=O)N2CCC[C@H]2C(=O)N[C@@H](CCCNC(=N)NC)C(=O)N[C@@H](CC(N)=O)C(N)=O)C(=O)O)CC1 (stereo partly shown)
inhibition (NPY1R (Homo sapiens, UniProt P25929); antagonist, DiscoverX GPCR panel; 1 µM): 64%

CC(C)(C)C(=O)OCOP(=O)(OCOC(=O)C(C)(C)C)C1CCCN(O)C1=O (stereo not shown)
GI50 (HOP-62): 487 nM

C[n+]1cn([C@@H]2O[C@H](COP(=O)([S-])OP(=O)(O)CP(=O)(O)OP(=O)([S-])OC[C@H]3O[C@@H](n4c[n+](C)c5c(O)nc(N)nc54)[C@H](O)[C@@H]3O)[C@@H](O)[C@H]2O)c2nc(N)nc(O)c21 (stereo partly shown)
inhibition (dcp2 with Dcp1; 200 µM, 0.25 h): 29.9%

Cc1ccc(N2CCN(C)CC2)cc1C(=O)N[C@H](C)c1cc(-c2cnn(C)c2)nc2ccccc12
viability (African green monkey cells; 500 µM): -0.272%

CN[C@@H]1[C@H](O)[C@H](NC)[C@H]2O[C@]3(O)[C@H](O[C@@H]2[C@H]1O)O[C@H](C)C[C@H]3NC(=O)Cc1ccc(Cl)cn1
inhibition (EDNRB (Homo sapiens, UniProt P24530); ligand displacement, radioligand; 10 µM): 8%

CC[C@H](C)[C@H](NC(=O)[C@H](CO)NC(=O)[C@H](Cc1ccc(O)cc1)NC(=O)[C@H](Cc1ccc(O)cc1)NC(=O)[C@H](CC(N)=O)NC(=O)CNC(=O)[C@H](CO)NC(=O)[C@H](Cc1ccc(O)cc1)NC(=O)[C@H](CO)NC(=O)[C@H](CO)NC(=O)[C@H](CC(N)=O)NC(=O)COCCOCCNC(=O)CN1CCN(CC(=O)O)CCN(CC(=O)O)CCN(CC(=O)O)CC1)C(=O)N[C@@H](CC(C)C)C(N)=O [copper-64 labelled]
maximum pancreas uptake (dynamic PET; tamoxifen-induced PDAC mouse model, pancreas; 6.5 min, CLDN4-expressing tumours): 17.2 %IA/cc

Cc1nc2cccc(OCC(C)(C)C(=O)NC(C)C)c2c(N)c1C(=O)[O-].[Na+]
revertant colonies (Salmonella typhimurium; Ames plate incorporation; TA98; 0.80 mg/plate, together with: with rat liver S9): 39 ± 7 colonies/plate
